Results collected from several papers.
A part holds a random share of what one study measured.

Series 1
Target: RING finger protein unkempt homolog, zinc fingers 1-6, GST-SBP tag (UNK, Homo sapiens, UniProt Q9C0B0, residues 30-357)
UniProt Q9C0B0, sequence (30-357, looked up): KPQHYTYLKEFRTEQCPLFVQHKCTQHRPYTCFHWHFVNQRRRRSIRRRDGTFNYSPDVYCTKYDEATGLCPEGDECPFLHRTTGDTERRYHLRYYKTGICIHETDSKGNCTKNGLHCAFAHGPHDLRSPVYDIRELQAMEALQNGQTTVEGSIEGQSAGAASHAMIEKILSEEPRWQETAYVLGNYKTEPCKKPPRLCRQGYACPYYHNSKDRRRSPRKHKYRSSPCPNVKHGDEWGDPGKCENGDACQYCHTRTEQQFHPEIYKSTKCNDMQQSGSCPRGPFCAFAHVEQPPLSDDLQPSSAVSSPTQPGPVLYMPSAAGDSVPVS
Technique: RNA Bind-n-Seq
Form: RNA
Medium: in vitro
Tested at: not given
Notes: RNA with constant flanks, ends assumed
Baseline: input RNA pool
Reading: higher = stronger binding
Endpoint: bound/input enrichment
Constant ends, left off below: GGGAGUUCUACAGUCCGACGAUC … CAACAGAGGAUUGAGCAUCA
Sequence = UUCAUCUAUUUGUGUACAAAAUGAUGUCGUUUUGAGGGAAUUUAAGUAUUUAAAUUGCUUCACCGUCUAAAUUAUUAAUUUUCUUAAUAAAAUAACUGUUUAAACAUUGAUUUGCAGUUA; result = 0.298 ratio
Sequence = CUUACCUCUUGCAAAAAAAAGAAAAAAGAAAAAAGUUCAUUUAUUCAUUCUGUUUCUAUACCGCAAAACUGAAUGUCAAAAGUACCUUCUGUCCACACACACAAAAUCUGCAUGUAUUGG; result = 0.471 ratio
Sequence = GAGAAUGGCUCUCUUCAACUUGGCGCUGAAGCUGUGGAAGGUGGUAGACAUCAGAAGGGGUCCGGCCGUGCAGUCUUUGAGCUGGAAAAUGGAGAGGCAGAGAUCUACGCUGACCUGUCA; result = 0.113 ratio
Sequence = UUUCCUUCUUUUGGAAGUGGAUUUCCUGCUUUUGAUACAGGCUUCACUCCAUUUGGGUCACCCGGUCAUGGGGGUCUCACUUCAUUUUCUUCAACGUCAUUUGGCGGCAGUGGAAUGGGC; result = 0.172 ratio
Sequence = UUUUCUGUUAACAGUAUUUCUUGUGUGCGUGCUUGUUGGGCAGCCCGUUUGGCUGCGUUAUACCGCGAGUGAUGAGCUGAUCCUUUCCCCUAAGAGACAUGACUUCCCUCCGUCAGCAUU; result = 0.472 ratio
Sequence = AACAACUUUCUUCAAACGCUAAAUCAAGCUUGGAAUGAUCAUCAAACAGCUAUGGUGAUGAUCCGAGACAUACUAAUGUACAUGGACCGUGUGUAUGUACAACAAAAUAAUGUGGAGAAC; result = 0.119 ratio
Sequence = CAUGUGUGUCUAUGUGUCUCUUGUUUUUCUUGCAUGUGUAUAUGUGUACUGCUUAUACACCUCCGUCUGUGGAGUUCAAAAGAAUCCAUUGUUUAACCUGGAUGGUUGUGAGUCAGUAUG; result = 0.265 ratio
Sequence = CUGACCCAUAAUAAUGGAAAGUUUAACAGUGACUCACAUUCUCCUAAAGUUUCCAGCCAGAACCGGACACGCUUAUUUGGUCAUUUUCCCGGGCCAGAGUUCUUGGACAUAGAGAAAACU; result = 0.351 ratio

Series 2
Target: RNA binding protein fox-1 homolog 2, RRM domain, GST-SBP tag (RBFOX2, Homo sapiens, UniProt O43251-10, residues 100-194)
Technique: RNA Bind-n-Seq
Form: RNA
Medium: in vitro
Tested at: 365 nM
Notes: natural RNA segment, single round, ends assumed
Baseline: no-protein control
Reading: higher = stronger binding
Endpoint: RBNS enrichment (R)
Constant ends, left off below: GGGAGUUCUACAGUCCGACGAUC … UGGAAUUCUCGGGUGCCAA
Target sequence (chain): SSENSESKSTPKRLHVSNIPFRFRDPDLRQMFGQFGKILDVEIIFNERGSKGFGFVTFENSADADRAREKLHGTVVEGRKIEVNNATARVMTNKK
Sequence = AAACAUUACUCUCUCUUGGGAGUCUGACAUCCUCCACUGUCCUCCAUGGGCACCCGUGCUCACAUGCACAGACGCAAACACAGUUGUCAUACAUGCCACCACACAAAGAC; result = 0.326
Sequence = UUCCCUCCAUCCACCCCUCUGGCACCUGGGUUGGUCUAAUCCUAGUUUGCUGUGGCCUUCCCGGUUGUGAGAGCCUGUGAUCCUUAGAUGUGUCUCCUGUUUCAGACCAG; result = 0.674
Sequence = CAGCGAAAUUCUUGUUCAGGCUGGGUCUGUCGACUUUGACUCUGCUAUUUAUAGAGCCAAUGUGGGUUAAUAACUACUAUUUAUUGAGUGCCCGUUCCAUGCCAAGCAUU; result = 0.577
Sequence = AGAUAAUCUUGCGUUUUUCGUCAUCUUAUUCCAGUUCUGUGGGGGAUGAGUUUUUUUGUGGGUUGCUUUUUCUUCAGUGCUAAGAAAGUUCCCUCCAACAGGAACUCUCU; result = 0.571
Sequence = CAGAGAUUCCUGACCACUGAUCAUGCGGCCAGGAAGGGGGACCAAGAGUAAACCCCAUCUUAAUUACAAGAGAAAAUUUUUUUCUUUUUCUCGUGUGUGUGUGUGUGUGU; result = 0.863
Sequence = ACCUGUGCCAACUGUGGAGUGGGGAGGCAGGGCCUGAACCCUCAAUCCCUGCAGCCUAGCCUCCCCACCCUCCAGAACCUGGAAUAGCUGAGCAGCUCAGGCUGUGGCCC; result = 0.453
Sequence = UUAAUUUUCUUUCCAGGUAGAGUAGCUCUUUGUACAUAAAGAAUACUUGAAAAAUUAAUUGUAUGAUGUAUGAGAAGACAGAGUCUCCUAGUUUUGUAUCUUGUUGUAUG; result = 4.12
Sequence = AAGGCUAACUUCUUUUCACUGUUGUGACCCUUUGCAAAAUGUAUGUUACAAUAGAUAGUGUCAUGUUGCAGGUUCAACGUUAUUUACAUGUAAAUAGACAAAAGGAAACA; result = 0.472

Series 3
Target: Hepatocyte nuclear factor 3-alpha (Foxa1, Mus musculus, UniProt P35582, residues 1-468, full length assumed)
UniProt P35582, sequence (whole entry, looked up): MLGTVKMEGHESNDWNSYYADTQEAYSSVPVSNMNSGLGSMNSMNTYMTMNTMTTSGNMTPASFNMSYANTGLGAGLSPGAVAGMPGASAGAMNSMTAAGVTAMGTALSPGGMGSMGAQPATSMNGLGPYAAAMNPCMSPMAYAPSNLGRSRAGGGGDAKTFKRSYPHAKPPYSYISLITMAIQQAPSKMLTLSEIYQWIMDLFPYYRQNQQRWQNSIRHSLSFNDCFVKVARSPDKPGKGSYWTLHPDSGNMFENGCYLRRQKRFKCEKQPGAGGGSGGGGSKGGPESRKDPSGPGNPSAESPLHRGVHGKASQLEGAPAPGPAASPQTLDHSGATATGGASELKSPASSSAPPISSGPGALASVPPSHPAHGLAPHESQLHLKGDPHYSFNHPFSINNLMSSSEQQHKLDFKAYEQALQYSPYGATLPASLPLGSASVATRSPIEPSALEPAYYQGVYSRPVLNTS
Technique: EMSA with sequencing
Form: double-stranded DNA, one strand shown
Medium: in vitro
Tested at: 10 and 20 nM
Notes: whole designed probe, mean of two concentrations, ends assumed
Baseline: negative control set to 0
Reading: higher = stronger binding
Endpoint: normalised bound fraction
Constant ends, left off below: GTGAGCGGTGCCCATTGATGGGGAAC … TTTCACTGGGATCGTGGGGAC
Sequence = GTTTTTGCACTGACGTGCACAGGCAAGCCCATATCTCTGCCTCTAAGCACATACTCTCTTTCCAAAGGTTGTGTAATGAGTGAGTCAGAGCAGAGTACTCTTAAGAAAGGAAAGAGGGCAAGGCAGGGCAGGAATTCAGCTCAATGAAGCCGCGGAGCCTCCATTTAAAAATGATACTAATGAGCCCACAGAA; result = -0.0608 ratio
Sequence = GCACTAAAAATATGTTTTTTTAAAAAATCTCCAGGGCCACTCCTAGGGTGTGCAGTGCCCTGCAAAGATAGTTTTTGTAGGGTACTTGCCTATGTAAACAACACAATTTTAGAATTCATTCCAAAACTTACAGGTCTGTGTGAGGTATAGTGATTAATGGATAGAGAAGAGATGCTTACACATTTGTTTATTG; result = 0.46 ratio
Sequence = CAGACAACTCTATTTGAATATGAAAATTTCAACTTTAAACCTCTGAACTCTGCTGGGTCTGCAGAGGCGTTTTAATGTCAACCTCAGGAAATGTACACATGAAGCAGAATTTACAACTCATCACTGTCACAGTTAGATTAGAGTGTGAGTTAAAGAGTAATACATTAACCAGGGTTAGTGCATGGAGATTGTT; result = 0.105 ratio
Sequence = GTAGGCCTCTGCTGCACCTGTCAACTCCACCTGGCGGCACAGAAGCTGCCAACGGTACGTCAGTGAGTTACCTTGGCCGTGTTCCAGTGAAACTGTTTACACAGGCAGGTGGAAGTGACTGTGGTGATGGTTGCGTAACTCTGTGAACACACTGGAAACCATTGAATGTGTGTACTTGATCTGAATTGCGTGG; result = 0.408 ratio
Sequence = ATACACTTCATTATGTCACTGTTGTTTGGTTGTGTTCTAGGCGAGAAACCACCTTTGGAAGGTTCACAGCAGCCCCAATTTAGCACTCTGCCAAGATTACATTGTCAGGCTGCATTGCCACTAGGGGGAACCATAGCTTTTTATCATCCCAGCCAGGGTGGCTGTGGGCAGCTTCTGCCTGGCAGGTAATAAG; result = -0.0289 ratio

Series 4
Target: Phosphate system positive regulatory protein PHO4, full length, GST-tagged (PHO4, Saccharomyces cerevisiae, UniProt P07270, residues 1-312)
Technique: competition protein-binding microarray
Form: double-stranded DNA, one strand shown
Medium: in vitro
Tested at: 2 µM
Notes: whole 60-bp probe, lowest competitor level
With: Cbf1 competitor, 0.05 µM
Reading: higher = stronger binding
Endpoint: fluorescence intensity
Constant ends, left off below: … GTCTTGATTCGCTTGACGCTGCTG
Target sequence (chain): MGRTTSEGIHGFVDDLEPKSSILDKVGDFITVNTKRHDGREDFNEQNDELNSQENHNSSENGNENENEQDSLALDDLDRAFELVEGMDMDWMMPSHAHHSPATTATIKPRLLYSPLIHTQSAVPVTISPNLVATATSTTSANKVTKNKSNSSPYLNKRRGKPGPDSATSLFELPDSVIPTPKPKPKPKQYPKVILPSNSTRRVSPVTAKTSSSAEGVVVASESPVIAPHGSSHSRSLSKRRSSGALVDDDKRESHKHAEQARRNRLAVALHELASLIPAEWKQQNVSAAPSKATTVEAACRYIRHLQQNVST
Sequence = GCTATTGATCAAGGCCACATGCAAAATAGGGAAGGG; result = 7770 a.u.
Sequence = TATCACTGAGCTGTTCTCGTGGCCGTTAGGTAAACC; result = 7510 a.u.
Sequence = AAACCAGACAAGAGTCAGGTGACGCTGCAGATGAAA; result = 3800 a.u.
Sequence = ATCTGGCATCTTCACCACGTTATTTCTGCTGGTGAA; result = 9850 a.u.
Sequence = CGTCCTAGCGATTGATAAGTGGGTGCCATGAGGAAG; result = 6720 a.u.
Sequence = CGGGGTTAAGTTTGCCTAGTGGGTGGCTTGCAGCAG; result = 4420 a.u.
Sequence = ATCATCGTAGATACCCACGTATAAATCAGTAACGCC; result = 7050 a.u.
Sequence = AAAGCCAGGCCGAGTCACGTCAGTTGCTGACCCTGG; result = 2990 a.u.
Sequence = TGCGCAACAACTTGGCCGGTGGGTGTATGTCTAGAA; result = 4610 a.u.
Sequence = GTCTTGTCTCATTTTCACGTGGTGTTCCCCACTTCA; result = 13600 a.u.
Sequence = ATCCTTTTGAATCGGCACGTGAATATACTAAAGCTT; result = 16300 a.u.
Sequence = ACAAAGAGAGATGAATCCGTGCGATCCATTGTAGAA; result = 5530 a.u.
Sequence = AGAGGGCAGAATTTGTCCGTGCGGACATTTGCCTGT; result = 4810 a.u.
Sequence = AAAGCGGTAATTTGTCACTGAACTTCACATATCTAT; result = 3470 a.u.
Sequence = GTCTTGTCTCATTGGGGGGTGGGTGTCCCCACTTCA; result = 5340 a.u.
Sequence = TTGCATATTGTTACCCACGGCTTCTAGCAACATGGA; result = 5960 a.u.
Sequence = CGGGGTTAAGTTTTTCACGTGCTATGCTTGCAGCAG; result = 13100 a.u.
Sequence = AAATTACTAAGTTGTTTAGTGGGTGACGCCGTATGA; result = 3330 a.u.
Sequence = GGCAATTGCAAGCCCGTCGTGCTTTTGGGGTGATAT; result = 7050 a.u.

Repeated from above (series 4):
Sequence = AGAGGGCAGAATTTGTCCGTGCGGACATTTGCCTGT; result = 4810 a.u.
Sequence = AAAGCGGTAATTTGTCACTGAACTTCACATATCTAT; result = 3470 a.u.
Sequence = GTCTTGTCTCATTGGGGGGTGGGTGTCCCCACTTCA; result = 5340 a.u.
